Measurements collected from several papers.
A part holds a random share of what one study measured.

Study 1 — method: RNA Bind-n-Seq; form: RNA; medium: in vitro; concentration: 365 nM; reference: no-protein control; reading: higher = stronger binding; quantity: RBNS enrichment (R)
Target: RNA binding protein fox-1 homolog 2, RRM domain, GST-SBP tag (RBFOX2, Homo sapiens, UniProt O43251-10, residues 100-194)
Notes: natural RNA segment, single round, ends assumed
Construct (chain): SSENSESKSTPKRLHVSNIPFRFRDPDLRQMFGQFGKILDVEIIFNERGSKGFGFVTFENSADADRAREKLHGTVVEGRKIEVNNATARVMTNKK
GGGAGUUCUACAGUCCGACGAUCCCUUUUCAUAGCUGGAUCUUCCGUGAAGUGUUCCUUUUGGUGGUUUGGAUUUUUUUUUUUUUUAAAUAAAGACCUUAUCUGCCGAAUUUAAUUGUAGAGAUUUGAACCCGUGGAAUUCUCGGGUGCCAA: 0.333
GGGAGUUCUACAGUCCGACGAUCUGAUGUCCAUCUGUCCCUGUGUCUUCUGUCCUCUUUCAGCUAGUUUAGGCUUAUGCCUAGAGUCACCCCAAAGAACUGAGACUGGCUGCAGCAGCCCAGCUGUGUUUCUCUGGAAUUCUCGGGUGCCAA: 0.705
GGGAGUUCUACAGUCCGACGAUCUAUUUGAAGAACAAUGCAAAAUGAGGCUUUCAUUGAAGGGAGAAAAGAGAAAAAAAGAAAAAAAAAACCUGUCUCUGUUCUUUUUUUCUCUCUCUCAUUAAGAAGCAAAAUGGAAUUCUCGGGUGCCAA: 0.968
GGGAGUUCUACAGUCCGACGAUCGAGUUGAAUUUAUAAAUGUCAUUUGCAACCAAAUGAAGUAUUUAUUUUUAAAAAGAGAGUGAAGGAACCAACACUGAUUUGUACAUAAUAAAAAUGUGUGUAUUAUAUAUUGGAAUUCUCGGGUGCCAA: 0.374
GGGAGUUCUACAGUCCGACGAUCCCUCUAAAGUGCCAAGGGACCAAUCAUUGAUGUUCCAUGGAGCCAGUCAUGGAAAUCCCUGGAAGGUUCACACAGCUCUCAUCCAAAGCCCUGGCCUUGCUAUGAGGGAAUGGAAUUCUCGGGUGCCAA: 0.368
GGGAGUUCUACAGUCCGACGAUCGGCAGGAGGUGGCAUGUGCCCAGCACUUCCAUUAAUCUGAGCCUAGGAGUUGAAUUCUUUGGCAAGGUUGGAUUCUGAGGUCCUUAUUAUGUUAAUGAUGGUGCAAUACUUGGAAUUCUCGGGUGCCAA: 2.24
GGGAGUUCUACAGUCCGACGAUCUACAGUGCCAAAAUGCCCCAGAGAGGCUCCAUUACUUCUGGAGCCUACAAAGCUGUUCCCUGAUGUCACAGGUCCCUCCGACUCAUUUUCCAGGAGACUUUGCCUUGAGGUGGAAUUCUCGGGUGCCAA: 0.3
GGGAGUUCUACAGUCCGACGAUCCUCAGGAUAUGGGGCCAAUCUCUGUGAGUCCAGCAUGUACCUGUCUCUCCCUAGUGUCCCUUCAGCCUGGGCUGACCAGUGCCCGCCUCUGGGCUUGACCAGUUCCCAAUUGGAAUUCUCGGGUGCCAA: 7.53

Study 2 — method: universal PBM; form: double-stranded DNA, one strand shown; medium: in vitro; concentration: not given; reading: higher = stronger binding; quantity: E-score
Target: Sal-like protein 4, full length isoform B (SALL4, Homo sapiens, UniProt Q9UJQ4-2, residues 1-616)
Notes: 8-mer, flanks averaged, mean of replicates
GCTAACCA: -0.191
AACGAAGA: 0.0791
TCAGTAGA: 0.0862
CCGACGAA: -0.0514
ATTGAATG: 0.241
CGGCAGAA: -0.211
CATTAGCC: -0.127
ACTGTTCT: 0.104
ATAGGCCA: -0.019
ACGCTTTG: -0.0414
AACGGGCT: -0.205
GACTAAAC: -0.0594
ACCGTTGG: -0.254
ATGGGCGA: -0.289
GTAGCTCA: -0.0699
GACCACAA: -0.0797
AAGGTTTG: 0.0325
ACTGTACG: 0.0404
ACTAACTG: -0.0848
AGAGTTCA: -0.0014
GGGCTGAC: -0.221
AAACACGA: 0.104

Study 3 — method: protein-binding microarray; form: double-stranded DNA, one strand shown; medium: in vitro; concentration: 250 nM; notes: 60-bp whole probe; added: salmon DNA 0.4 mg/ml; reference: random background probes; reading: higher = stronger binding; quantity: log fluorescence; shared flanks, not repeated: GCCTAGCAC … GTCTTGATTCGCTTGACGCTGCTG
Target: Interferon regulatory factor 7, full length, phosphomimetic (IRF7, Homo sapiens, UniProt Q92985, residues 1-503, S101K/S471D/S472D/S475D/S476D/S477D/S483D/S484D/S487D)
Chain of UniProt Q92985 (whole entry, unmodified, looked up): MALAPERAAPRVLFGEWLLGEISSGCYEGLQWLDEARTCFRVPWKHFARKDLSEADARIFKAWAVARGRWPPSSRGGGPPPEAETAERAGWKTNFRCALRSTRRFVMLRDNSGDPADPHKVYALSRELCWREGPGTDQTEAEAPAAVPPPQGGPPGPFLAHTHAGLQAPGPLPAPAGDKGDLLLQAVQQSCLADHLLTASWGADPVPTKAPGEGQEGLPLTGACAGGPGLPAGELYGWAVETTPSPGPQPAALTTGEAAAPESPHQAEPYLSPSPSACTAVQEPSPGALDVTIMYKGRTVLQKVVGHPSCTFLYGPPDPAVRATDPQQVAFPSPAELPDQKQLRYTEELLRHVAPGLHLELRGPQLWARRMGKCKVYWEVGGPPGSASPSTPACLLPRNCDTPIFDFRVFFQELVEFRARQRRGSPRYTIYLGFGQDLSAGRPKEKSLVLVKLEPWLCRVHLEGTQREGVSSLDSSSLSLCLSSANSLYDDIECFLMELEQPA
TTAGGTCTCCTTATCCTTAAGTGCTAG: 0.764 z-score
TTGGGTATCGGGTATCGGTTAGTGCTA: 1.36 z-score
TTAGGTATCGACTTTCGGTTTGTGCTA: 6.08 z-score
TTAGATATCGGGTTTCGCTTAGTGCTA: 4.54 z-score
TTTCCTTCCTCTTTTACCCCGTGCTAG: 3.33 z-score
GACCGTTTCGGGTTTCGGGACGTGCTA: 7.23 z-score
GACGGTTCGCTTTTCCTGACGTGCTAG: 1.88 z-score
CACGGTTTCGACTTTCGGGACGTGCTA: 11.4 z-score
GACGAACGGAGTTTCGAGACGTGCTAG: 3.64 z-score
TTAGGCCTCCTTTTCCTTTAGTGCTAG: 1.37 z-score
TCAGTATTATTTATTGTACTGTGCTAG: 0.155 z-score
TCACAAGTTTCACGTCTTACTGTGCTA: 0.843 z-score
TCATTTTCCATTTTGTGACTGTGCTAG: 4.61 z-score
GACGGTATCGGTCTCGGTACGTGCTAG: 0.913 z-score
GACGGTTCCGGTTTCGGGAGGTGCTAG: 6.42 z-score
TCATTTATCCCTGACAGACTGTGCTAG: 1.34 z-score
GACGGATTGGACACTGGGGACGTGCTA: -0.669 z-score
TTAGAGCTCAGTTTCGATTAGTGCTAG: 7.95 z-score
GACGAACTGGGGACTGGTGACGTGCTA: -0.584 z-score

Study 4 — method: protein binding microarray; form: double-stranded DNA, one strand shown; medium: in vitro; concentration: not given; reference: not given; reading: higher = stronger binding; quantity: E-score
Target: Histone acetyltransferase KAT6A, winged helix 1, GST fusion (KAT6A, Homo sapiens, UniProt Q92794, residues 1-85)
Notes: 8-mer, flanks averaged, mean of 2 arrays, mostly near background
Residues (chain): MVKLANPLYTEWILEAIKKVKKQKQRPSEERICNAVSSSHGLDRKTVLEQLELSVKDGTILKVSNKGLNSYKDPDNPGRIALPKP
CTACGAGA: -0.272
CCTATTTA: -0.0146
GGGCCCCC: 0.0563
AATCTAGG: -0.121
ACCGTGGA: 0.247
AATGGGCC: -0.0554
ACCTGATG: -0.0495
CGTCTGCC: 0.134
CCGCGCAG: 0.391
CAGCTGGA: -0.271
AGACGACT: -0.129
CCGATTCG: 0.115
AACAAATA: -0.159
AAACTGTC: -0.122
ATCACCTG: -0.225
AACAATAA: -0.0809
ATGTCGAC: -0.236
CCGATCAC: 0.0147
CGAGAACG: 0.102
TGATAGAA: -0.23
GTGCTGTA: -0.136
AATACCCG: 0.244
AAGCGTTC: 0.00601
TACCAAAA: -0.106
CCCACCAG: -0.206

Mixed results — method: cross-linking MS; medium: cell fractions
PHB2 (Homo sapiens, UniProt Q99623) — cross-linked residues (OCIAD1 (Homo sapiens, UniProt Q9NX40); added: DMTMM): K89 to E245
PARP9 (Homo sapiens, UniProt Q8IXQ6) — cross-linked residues (DTX3L (Homo sapiens, UniProt Q8TDB6); added: DSSO): K557 to K401
ALDH7A1 (Homo sapiens, UniProt P49419) — cross-linked residues (CACNA1B (Homo sapiens, UniProt Q00975); added: DSSO): K109 to K158

Some of these lines once more (study 4):
ATGTCGAC: -0.236
CCGATCAC: 0.0147
CGAGAACG: 0.102
TGATAGAA: -0.23
GTGCTGTA: -0.136
AATACCCG: 0.244
AAGCGTTC: 0.00601
